Published values pooled from the literature.
Every numbered part comes from another study and shows a few of its results, in no order. Substitutions count along the parent as printed.

Series 1
Target: CCNE2, cyclin fold, Cln2 fusion (human)
Method: yeast growth competition, sequencing
Medium: yeast
Setting: weak parent motif
Relative to: not given
Direction: higher = stronger binding
Starting sequence: RRM2 docking peptide (human); SKTARRIFQEPTE; partner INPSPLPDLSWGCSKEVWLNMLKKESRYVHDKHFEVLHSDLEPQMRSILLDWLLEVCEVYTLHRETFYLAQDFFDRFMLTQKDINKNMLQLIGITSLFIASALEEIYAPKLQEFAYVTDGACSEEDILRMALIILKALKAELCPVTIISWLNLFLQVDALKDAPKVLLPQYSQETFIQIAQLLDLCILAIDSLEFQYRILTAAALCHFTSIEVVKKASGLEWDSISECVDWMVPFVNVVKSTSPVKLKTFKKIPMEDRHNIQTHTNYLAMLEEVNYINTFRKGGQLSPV
| Substitution | normalised enrichment score |
| --- | --- |
| K2A | 0.404 |
| T3A | 0.333 |
| R5A | -0.041 |
| E13A | 0.396 |
| R6A | -0.0896 |
| P11A | 0.164 |

Series 2
Target: FOSL2, bZIP domain (human)
Method: DHFR protein complementation
Medium: yeast
Setting: single substitutions, most at no-binding floor
Relative to: wild-type JUN-FOS pair
Direction: higher = stronger binding
Starting sequence: JUN, bZIP domain (human); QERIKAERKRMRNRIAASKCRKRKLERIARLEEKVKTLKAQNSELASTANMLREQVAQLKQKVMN; partner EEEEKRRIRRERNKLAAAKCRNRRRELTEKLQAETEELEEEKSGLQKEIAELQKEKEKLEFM
| Substitution | binding fitness |
| --- | --- |
| T48Q | 0.104 natural log |
| V56S | -0.983 natural log |
| A57E | 0.0778 natural log |
| T37C | 0.0992 natural log |
| L31D | -0.585 natural log |
| R53K | 0.00654 natural log |
| K34P | -1 natural log |
| R53F | -0.754 natural log |
| L38H | -1.13 natural log |
| A49Y | -0.236 natural log |

Series 3
Target: Interferon regulatory factor 3, full length, phosphomimetic (IRF3, Homo sapiens, UniProt Q14653, residues 1-427, S386D/S396D/S398D/S402D/T404D/S405D)
Method: protein-binding microarray
Form: double-stranded DNA, one strand shown
Medium: in vitro
Concentration: 2540 nM top
Setting: 60-bp whole probe
Together with: salmon DNA 0.4 mg/ml
Relative to: random background probes
Direction: higher = stronger binding
Shared flanks, not repeated: GCCTAGCAC … GTCTTGATTCGCTTGACGCTGCTG
Residues (chain): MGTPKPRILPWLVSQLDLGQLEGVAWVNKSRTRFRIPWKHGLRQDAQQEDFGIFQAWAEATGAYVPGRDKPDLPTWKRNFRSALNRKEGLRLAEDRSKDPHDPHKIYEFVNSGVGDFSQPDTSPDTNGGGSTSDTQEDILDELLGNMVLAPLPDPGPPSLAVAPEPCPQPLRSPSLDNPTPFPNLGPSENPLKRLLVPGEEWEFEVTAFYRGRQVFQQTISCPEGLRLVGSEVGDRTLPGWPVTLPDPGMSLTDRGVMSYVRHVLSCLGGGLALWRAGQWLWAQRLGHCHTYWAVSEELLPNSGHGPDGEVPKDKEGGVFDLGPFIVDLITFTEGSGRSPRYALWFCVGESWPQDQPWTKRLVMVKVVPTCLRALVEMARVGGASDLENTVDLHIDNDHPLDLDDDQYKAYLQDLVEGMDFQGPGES
| Oligonucleotide | fitted relative affinity [z-score] |
| --- | --- |
| TTAGATATCGGGTTTCGTTTAGTGCTA | 2.13 |
| TTAGGTTTCGACTATCGATTAGTGCTA | 2.48 |
| TTAGGTATCCTGATCCTTTAGTGCTAG | 1.85 |
| GACGATGTCAGTTCCGAGACGTGCTAG | 0.621 |
| TCAATTTTTTTTCTAACACTGTGCTAG | 0.74 |
| GACGATTTCGGGTATCGACACGTGCTA | 1.82 |
| TTAGGTTTCGACTTTCGATTAGTGCTA | 3.7 |
| ATTTTGAGGTGGAGAGATAAGTGCTAG | 0.136 |
| TTAGATCTGAGTTTCGATTAGTGCTAG | 2.52 |
| GACTCTTTCTGTCAGTTTTGGTGCTAG | 1.65 |
| GACGATTTTGGGTTTCGAGACGTGCTA | 1.34 |
| TCAACTTTCTTTAACTCACTGTGCTAG | 1.25 |
| TCAAGACTCATAATGGCTAGGTGCTAG | -0.252 |
| CTAGATATCGGGTATCGATTAGTGCTA | 0.46 |
| GACGGTTTCCTTTTGCTGACGTGCTAG | 9.73 |
| TTAGGTATCGGTCTCGGGTAGTGCTAG | 3.86 |
| GACGGTTTCGGGACTGGGCACGTGCTA | 4.79 |
| TCATGAGTCACTTCTGGTACTGTGCTA | -0.189 |
| TTAGGTATCCTTTCCCTTTAGTGCTAG | 7.63 |

Series 4
Target: ABI1, truncated, D143A, DHFR fusion (Arabidopsis thaliana)
Method: DHFR PCA, deep sequencing
Medium: yeast
Setting: methotrexate growth selection, single substitutions
Together with: (+)-ABA 710 µM
Relative to: wild-type fitted maximum
Direction: higher = stronger binding
Starting sequence: PYL1, truncated, DHFR fusion (Arabidopsis thaliana); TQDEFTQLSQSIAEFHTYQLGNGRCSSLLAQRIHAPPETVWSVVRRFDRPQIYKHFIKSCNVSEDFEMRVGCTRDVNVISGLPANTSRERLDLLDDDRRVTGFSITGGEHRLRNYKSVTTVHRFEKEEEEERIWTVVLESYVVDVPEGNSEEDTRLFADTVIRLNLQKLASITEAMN
| Substitution | relative binding score [%] |
| --- | --- |
| F56R | 11.8 |
| N149H | 64.1 |
| C60K | -0.0847 |
| E127T | 108 |
| Y53I | 73.7 |
| T154C | 94.9 |
| M176N | 101 |
| P146A | 97.9 |
| H110T | 83.8 |
| V142A | 97.5 |
| H34A | 102 |

Series 5
Target: CDC34 UBC core domain (UniProt P49427)
Method: yeast two-hybrid
Medium: yeast
Setting: mostly zero background
Relative to: not given
Direction: higher = stronger interaction
B1: ANKIB1 RING domain (UniProt Q9P2G1); chain LSPGDLDTSLCDICMCSISVFEDPVDMPCGHDFCRGCWESFLNLKIQEGEAHNIFCPAYDCFQLVPVDIIE
B2: TRIM55 RING domain (UniProt Q9BYV6); chain TMDNLEKQLICPICLEMFTKPVVILPCQHNLCRKCASDIFQASNPYLPTRGGTTMASGGRFRCPSCRHEVVLDRHG
B3: RNF112 RING domain (UniProt Q9ULX5); chain QPMAPRELPTCSICLERLRDPISLDCGHDFCIRCFSTHRLPGCEPPCCPECRKICKQKRGLR
B4: RNF4 RING domain (UniProt P78317); chain TGLRPSGTVSCPICMDGYSEIVQNGRLIVSTECGHVFCSQCLRDSLKNANTCPTCRKKINHKRYHP
B5: PHF7 RING domain (UniProt Q9BWX1); chain IQHGHVGEESCILCCEDLSQQSVENIQSPCCSQAIYHRKCIQKYAHTSAKHFFKCPQCNNRKEFPQEML
B6: TRIM15 RING domain (UniProt Q9C019); chain SLKVVHELPACTLCAGPLEDAVTIPCGHTFCRLCLPALSQMGAQSSGKILLCPLCQEEEQAETPMA
Construct (chain): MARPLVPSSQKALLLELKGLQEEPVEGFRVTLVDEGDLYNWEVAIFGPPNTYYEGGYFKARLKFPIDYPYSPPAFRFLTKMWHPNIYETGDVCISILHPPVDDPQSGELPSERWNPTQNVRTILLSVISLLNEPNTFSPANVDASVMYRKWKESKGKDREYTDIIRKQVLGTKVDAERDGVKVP
| Molecule | lacZ reporter activity |
| --- | --- |
| MANWVFCNRCFQPPHRTSCFSLTNCGHVYCDACLGKGKKNECLICKAPCRTVLLSK (RNF212 RING domain (UniProt Q495C1)) | 0 |
| SYEDKSNDFVCPICFDMIEEAYMTKCGHSFCYKCIHQSLEDNNRCPKCNYVVDNIDHLY (COP1 RING domain (UniProt Q8NHY2)) | 0 |
| B1 (ANKIB1 RING domain) | 0 |
| B2 (TRIM55 RING domain) | 0 |
| B3 (RNF112 RING domain) | 0 |
| B4 (RNF4 RING domain) | 0 |
| QLQDEEDDSLCRICMDAVIDCVLLECGHMVTCTKCGKRMSECPICRQYVVRAVHVF (RNF34 RING domain (UniProt Q969K3)) | 0 |
| B5 (PHF7 RING domain) | 0 |
| B6 (TRIM15 RING domain) | 0 |

A few entries again (series 5):
| Molecule | lacZ reporter activity |
| --- | --- |
| B6 (TRIM15 RING domain) | 0 |
| B1 (ANKIB1 RING domain) | 0 |
| QLQDEEDDSLCRICMDAVIDCVLLECGHMVTCTKCGKRMSECPICRQYVVRAVHVF (RNF34 RING domain (UniProt Q969K3)) | 0 |
| B2 (TRIM55 RING domain) | 0 |
| B3 (RNF112 RING domain) | 0 |
| B4 (RNF4 RING domain) | 0 |
| SYEDKSNDFVCPICFDMIEEAYMTKCGHSFCYKCIHQSLEDNNRCPKCNYVVDNIDHLY (COP1 RING domain (UniProt Q8NHY2)) | 0 |
| B5 (PHF7 RING domain) | 0 |
| MANWVFCNRCFQPPHRTSCFSLTNCGHVYCDACLGKGKKNECLICKAPCRTVLLSK (RNF212 RING domain (UniProt Q495C1)) | 0 |
